Results gathered from unrelated publications.
Every numbered part comes from another study and shows a few of its results, in no order.
UniProt P15374, sequence (whole entry, looked up): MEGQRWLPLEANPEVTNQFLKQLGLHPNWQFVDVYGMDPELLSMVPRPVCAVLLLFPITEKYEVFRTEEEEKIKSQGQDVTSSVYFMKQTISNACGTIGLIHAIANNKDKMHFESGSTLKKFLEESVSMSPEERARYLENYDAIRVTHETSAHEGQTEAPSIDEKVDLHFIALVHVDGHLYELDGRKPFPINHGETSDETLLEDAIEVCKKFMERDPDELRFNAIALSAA
UniProt P45974, sequence (whole entry, looked up): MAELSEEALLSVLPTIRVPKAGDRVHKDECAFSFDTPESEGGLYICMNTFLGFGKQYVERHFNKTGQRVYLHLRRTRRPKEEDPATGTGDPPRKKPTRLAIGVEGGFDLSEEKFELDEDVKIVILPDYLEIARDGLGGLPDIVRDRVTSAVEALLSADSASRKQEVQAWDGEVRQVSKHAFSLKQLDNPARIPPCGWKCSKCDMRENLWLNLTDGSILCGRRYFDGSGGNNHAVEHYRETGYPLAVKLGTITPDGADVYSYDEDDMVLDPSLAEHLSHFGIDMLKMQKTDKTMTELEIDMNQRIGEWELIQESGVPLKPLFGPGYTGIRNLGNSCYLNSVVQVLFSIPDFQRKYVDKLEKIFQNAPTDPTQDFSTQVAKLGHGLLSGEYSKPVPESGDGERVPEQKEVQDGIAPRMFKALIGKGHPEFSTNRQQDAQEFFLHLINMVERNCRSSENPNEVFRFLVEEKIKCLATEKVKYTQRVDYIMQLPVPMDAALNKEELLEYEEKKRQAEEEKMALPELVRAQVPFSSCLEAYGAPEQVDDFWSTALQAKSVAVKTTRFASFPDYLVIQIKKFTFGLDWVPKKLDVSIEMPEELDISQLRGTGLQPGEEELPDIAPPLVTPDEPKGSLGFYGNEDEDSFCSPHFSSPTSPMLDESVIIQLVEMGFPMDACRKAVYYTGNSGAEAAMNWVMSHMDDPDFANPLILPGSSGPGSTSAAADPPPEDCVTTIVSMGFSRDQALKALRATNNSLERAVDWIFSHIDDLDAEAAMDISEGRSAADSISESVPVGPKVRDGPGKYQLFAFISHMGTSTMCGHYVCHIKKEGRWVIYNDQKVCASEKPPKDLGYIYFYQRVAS

Study 1 — target: UBE2D2 UBC core domain (UniProt P62837); technique: yeast two-hybrid; matrix: yeast; notes: mostly zero background; baseline: not given; direction: higher = stronger interaction
UniProt P62837, sequence (whole entry, looked up): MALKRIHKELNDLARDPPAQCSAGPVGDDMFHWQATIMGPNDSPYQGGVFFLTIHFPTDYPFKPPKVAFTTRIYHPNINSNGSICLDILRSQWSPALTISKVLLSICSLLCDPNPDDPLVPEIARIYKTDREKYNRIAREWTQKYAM
B1: ARK2C RING domain (UniProt Q6ZSG1); chain EGEESDTDEKCTICLSMLEDGEDVRRLPCMHLFHQLCVDQWLAMSKKCPICRVDIETQLGAD
B2: IRF2BPL RING domain (UniProt Q9H1B7); chain SPMANSGPLCCTICHERLEDTHFVQCPSVPSHKFCFPCSRESIKAQGATGEVYCPSGEKCPLVGSNVP
B3: TRIM8 RING domain (UniProt Q9BZR9); chain WKNCFEEELICPICLHVFVEPVQLPCKHNFCRGCIGEAWAKDSGLVRCPECNQAYNQKPGLE
B4: PHF21A RING domain (UniProt Q96BD5); chain SPTSTDGDIHEDFCSVCRKSGQLLMCDTCSRVYHLDCLDPPLKTIPKGMWICPRCQDQMLKKEEAIPW
B5: RNF170 RING domain (UniProt Q96K19); chain TRQQFYTDMYCPICLHQASFPVETNCGHLFCGACIIAYWRYGSWLGAISCPICRQTVTLLLTVF
| Molecule | lacZ reporter activity |
| --- | --- |
| QLRRLQEERTCKVCMDKEVSIVFIPCGHLVVCKDCAPSLRKCPICRSTIKGTVRTF (BIRC3 RING domain (UniProt Q13489)) | 0 |
| B1 (ARK2C RING domain) | 14800 |
| DAIPSLSECQCGICMEILVEPVTLPCNHTLCKPCFQSTVEKASLCCPFCRRRVSSWTRYH (RNF168 RING domain (UniProt Q8IYW5)) | 0 |
| B2 (IRF2BPL RING domain) | 0 |
| FASPPDSNFVCSVCHGVLKRPARLPCSHIFCKKCILRWLARQKTCPCCRKEVKRKKVVH (RNF151 RING domain (UniProt Q2KHN1)) | 0 |
| B3 (TRIM8 RING domain) | 0 |
| B4 (PHF21A RING domain) | 0 |
| B5 (RNF170 RING domain) | 0 |

Study 2 — observed: peptide-MHC binding; molecule type: peptide; tested at: concentration not given
Target: HLA class I histocompatibility antigen, A alpha chain, allele A*26:03 (Homo sapiens, UniProt P04439)
| Molecule | binding |
| --- | --- |
| REIGDISYL | inactive |
| FQYEHEQTF | inactive |
| SYVFNFHKY | inactive |
| EYYFRNEVF | inactive |
| ETALAIIRR | inactive |
| REWGWRIPF | inactive |
| YMREVGAAL | inactive |
| GRRPLKNRK | inactive |

Study 3 — Molecule: ubiquitin aldehyde; observed: enzyme activity
USP14: Ubiquitin carboxyl-terminal hydrolase 14 (USP14, Homo sapiens, UniProt P54578)
UniProt P54578, sequence (whole entry, looked up): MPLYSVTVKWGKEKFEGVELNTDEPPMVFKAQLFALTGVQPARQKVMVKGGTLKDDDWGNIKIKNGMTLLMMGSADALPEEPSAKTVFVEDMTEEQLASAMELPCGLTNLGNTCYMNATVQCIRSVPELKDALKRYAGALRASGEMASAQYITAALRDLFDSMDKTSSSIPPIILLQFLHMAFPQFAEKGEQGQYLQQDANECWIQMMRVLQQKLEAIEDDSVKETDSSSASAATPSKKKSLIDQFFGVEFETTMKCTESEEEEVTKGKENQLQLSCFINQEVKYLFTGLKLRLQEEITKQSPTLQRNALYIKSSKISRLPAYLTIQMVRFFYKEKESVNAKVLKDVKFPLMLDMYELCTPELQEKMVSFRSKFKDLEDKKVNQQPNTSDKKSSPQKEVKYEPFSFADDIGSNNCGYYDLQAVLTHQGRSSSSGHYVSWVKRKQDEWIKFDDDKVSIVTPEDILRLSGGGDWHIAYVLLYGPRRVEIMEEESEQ
| target | setting | inhibition |
| --- | --- | --- |
| USP14 | 0.001 µM | 19% |
| USP10 (Homo sapiens, UniProt Q14694) | 0.1 µM | 43% |
| UCHL3 (Homo sapiens, UniProt P15374) | 0.001 µM | 33% |
| USP14 | 0.01 µM | 72% |
| USP5 (Homo sapiens, UniProt P45974) | 0.01 µM | 2% |

Other studies, line by line
| SMILES | cell line | assay | setting | how to read | measurement | result |
| --- | --- | --- | --- | --- | --- | --- |
| C/C=C1\NC(=O)[C@H]2CSSCC/C=C/[C@H](CC(=O)N[C@H](C(C)C)C(=O)N2)OC(=O)[C@H](C(C)C)NC1=O | HEK-293T-ACE2 | Hoechst nuclei count | concentration not given, counter-screen | baseline: vehicle | cell number | 61.2% |

Excerpt of the above (study 1):
| Molecule | lacZ reporter activity |
| --- | --- |
| B3 (TRIM8 RING domain) | 0 |
| B4 (PHF21A RING domain) | 0 |
| B5 (RNF170 RING domain) | 0 |
